# Published values of several laboratories.
# A part holds a random share of what one study measured. Substitutions count along the parent as printed.

# Study 1 — target: CCNF, cyclin fold, Cln2 fusion (human); method: yeast growth competition, sequencing; sample: yeast; setting: strong parent motif; relative to: not given; direction: higher = stronger binding
# Starting sequence: CDC25A docking peptide (human); PPHRRRLLFACSP
Variant,normalised enrichment score
R5T,1.4
P13L,6.53
C11K,6.17
P13F,6.44
S12N,8.06
H3G,9.17
P2M,7.1
R4H,2.89
H3C,10.6
S12G,7.84
F9W,3.6
P1A,7.62
F9Q,0.687
F9R,2.34
C11Y,8.15
P13V,7.2
P2S,6.33
S12R,6.68

# Study 2 — method: competition protein-binding microarray; molecule type: double-stranded DNA, one strand shown; sample: in vitro; concentration: 2 µM; together with: Cbf1 competitor, 0.05 µM; direction: higher = stronger binding; all sequences stand within: … GTCTTGATTCGCTTGACGCTGCTG
# Target: Phosphate system positive regulatory protein PHO4, full length, GST-tagged (PHO4, Saccharomyces cerevisiae, UniProt P07270, residues 1-312)
# Setting: whole 60-bp probe, lowest competitor level
# Construct (chain): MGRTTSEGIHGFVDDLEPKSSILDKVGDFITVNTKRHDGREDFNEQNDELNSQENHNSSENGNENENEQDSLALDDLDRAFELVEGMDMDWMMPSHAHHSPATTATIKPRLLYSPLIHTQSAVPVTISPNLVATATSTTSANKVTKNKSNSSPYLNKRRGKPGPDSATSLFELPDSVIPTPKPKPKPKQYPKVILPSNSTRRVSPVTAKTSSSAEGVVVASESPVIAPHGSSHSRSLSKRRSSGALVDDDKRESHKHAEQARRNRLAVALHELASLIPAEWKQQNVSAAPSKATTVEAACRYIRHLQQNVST
Oligonucleotide,fluorescence intensity [a.u.]
GTTGATTTGAACAGAAGCGTGGTGAACGGCTTTGAT,8370
CCAAGGAAATCCCGTCACAATACGCTCCTCAGTTGA,3300
TTCCCGGGAGGGGTGGGCGTGCGATTGGAATTAGTC,10200
TATTGGGCTATTTAGCACGTGATGGTAAAGTATATT,15500
GTCTTGTCTCATTTTCACGTGGAGTTCCCCACTTCA,11800
CGGGGTTAAGTTTTTCACGTGACATGCTTGCAGCAG,9890
CGGGGTTAAGTTTGCTCTGTGGGTGGCTTGCAGCAG,4920
CAAACTCAGTACCGTCAGCTGACAACTGCACTTCAA,3230
CGTTATTTACTTCCACACGTGCTTTAAATGATGTGA,19000
AAATTACTAAGTTGTCACTTGACTTACCCCGTATGA,3180
CTAACGAAGGTTTGACATGTGGGTGACAAGCCAAGT,12700
GTCTTGTCTCATTGAAGGGTGGGTGTCCCCACTTCA,4630

# Study 3 — method: RNA Bind-n-Seq; molecule type: RNA; sample: in vitro; concentration: not given; relative to: input RNA pool; direction: higher = stronger binding
# Target: RING finger protein unkempt homolog, zinc fingers 1-6, GST-SBP tag (UNK, Homo sapiens, UniProt Q9C0B0, residues 30-357)
# Setting: RNA with constant flanks, human-mouse chimeric sites, ends assumed
# All sequences stand within: GGGAGUUCUACAGUCCGACGAUC … CAACAGAGGAUUGAGCAUCA
# Target sequence (chain): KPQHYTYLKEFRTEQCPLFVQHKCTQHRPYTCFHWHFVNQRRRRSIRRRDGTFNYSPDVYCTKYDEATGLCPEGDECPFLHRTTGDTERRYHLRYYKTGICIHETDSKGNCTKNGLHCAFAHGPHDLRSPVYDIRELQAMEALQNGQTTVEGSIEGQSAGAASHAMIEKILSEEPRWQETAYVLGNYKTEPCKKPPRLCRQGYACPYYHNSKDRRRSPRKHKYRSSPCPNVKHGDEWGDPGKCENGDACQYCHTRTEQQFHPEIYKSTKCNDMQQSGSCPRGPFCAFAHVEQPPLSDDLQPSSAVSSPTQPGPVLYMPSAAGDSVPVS
Oligonucleotide,bound/input enrichment
CAGGGCAUCAUCUCUCGUGCUGUUAGACACCUGUUCAAGAGUAUUGAAGAAAAAAAAACCUCAGCGAUUAAAAACGGGCUUCCUGCUCCUGAAUUCAAAGUGAAUGCCCAGUUCCUAGAG,0.277 ratio
GAAUCCUACUCAGGCGGAUUUUGCAACACCAAGCUCACAGCAGCAGCAUCUUAGUCACAGUAGGGUAGUUUUGGGGCUCUGUGGCCAUGGUUUUACUCACAUGCAGGUUUGGAAAAUGUA,1.03 ratio
AUGGAACAUUUCGAUGCGUCACUCAGUACCUAUUUCAAGGCAUUGCUGGGCCCCCGAGAUACAAGAGUCAAAGGAUGGUUCCUCCUGGACAAUUACAUACCCACAUUUGUCUGUUCUGUU,0.0787 ratio
UGGCGCCUGCGCUCCCCACUCGUGUUUUUAAGUGUAUUUUUAUAAGAUACAUGUAUUUACAAUUGAGCUUUUGUUACAUAAUGCUGAAAACAUCUCUGAGAUUAUGAAAAAAUGUUAAAU,0.159 ratio
AACAGAUUUCUCAAGCACAUUCCAAGCAAUGCUUGGGGGGUGAUCAUUGUUGCCCAUGUGCCUUCUGACUGAGCUUUAAUGCUGUUCCAUGUUACAUCUUUCCUUCACUCCAGAAUUGUU,0.154 ratio
UCAGGAACCCAGACAAAUAUGAAUGUAAAUGAAGUCAUUAGCAACAGAGCAAUUGAAAUGUUAGGAGGUGAACUUGGCAGCAAGAAGCCUGUGCACCCCAAUGAUCAUGUUAAUAAAAGC,0.669 ratio
CACAGAGGAGAUCUGCUGUUCCUCACGAAUUUCCGGGAAGACCCAAUCAGAGCUGGUGAAAUAGUUGUUUUUAAGGUUGAAGGAAGAGACAUUCCGAUAGUUCACAGAGUAAUCAAGGUU,1.59 ratio
CGGAGCCCUCCUCUCCCACAGGCCCAAGAUAUAACCCACCAGUGCCUUCUGUCUGCUUGUCAGCUCUGUCAAUCACGCCUGUCCUCUGUCCCUCUCACCAAGUGCCCAAAGUGGGGAGGG,0.492 ratio
AACAGAUUUCUCAAGCACAUUCCAAGCGAGAAUGCUGGGGUGAUCAUUGUUGCCCAUGUGCCUUCUGACUGAGCUUUAAUGCUGUUCAUCCUUGAUGCUUUCCUUCACUCCAGAAUUGUU,0.13 ratio
CGGAGCCCUCCUCUCCCACAGGCCCAAGAUGUGACCCACCAGUGCCUUUUGUCUUCCUGUCAGCUCUGUCAAUCACGCCUGUCCUCUCACGCCCACACUCCCCAGCCAAAGUGGGGAGGG,0.356 ratio
GGCUGCUGGUGACUGUCCUGGAGUGGCCGUGUCACCGGCCGGAGCGCGGCCAGACUAAUUUUAGAAAAUGCCAAGUAGGAAGUUUGUCGAUGGUGAAGUGGUCAGAGGCCGAUGGCCUGG,1.86 ratio

# Study 4 — method: aptamer microarray, sandwich; molecule type: DNA with 2'F-ANA; sample: in vitro; concentration: 200 nM; together with: Cy3 exosite-II aptamer, 400 nM; direction: higher = stronger binding; oligonucleotide: GGTTGGTGTGGTTGG
# Target: Prothrombin, mature alpha-thrombin (F2, Homo sapiens, UniProt P00734)
# Setting: whole 15-mer aptamer, many near background
Modification,mean fluorescence intensity [a.u.]
2'F-ANA at 4 6 9 10 11 12 13,169
2'F-ANA at 1 8 9 10 12 13 15,71.9
2'F-ANA at 1 6 7 9 12,321
2'F-ANA at 6 7 11 13 15,333
2'F-ANA at 1 3 7 12 14 15,146
2'F-ANA at 2 3 10 11 12 14 15,278
2'F-ANA at 1 2 5 13 14,56.3
2'F-ANA at 3 5 6 8 11,98.7
2'F-ANA at 2 4 7 8 11 14,174
2'F-ANA at 3 6 9 10,462
2'F-ANA at 1 4 9 11 12 13 14 15,83
2'F-ANA at 2 3 6 7 12 13,864

# Study 5 — method: DHFR PCA, deep sequencing; sample: yeast; together with: (+)-ABA 4.8 µM; relative to: wild-type fitted maximum; direction: higher = stronger binding
# Target: ABI1, truncated, D143A, DHFR fusion (Arabidopsis thaliana)
# Setting: methotrexate growth selection, single substitutions
# Starting sequence: PYL1, truncated, DHFR fusion (Arabidopsis thaliana); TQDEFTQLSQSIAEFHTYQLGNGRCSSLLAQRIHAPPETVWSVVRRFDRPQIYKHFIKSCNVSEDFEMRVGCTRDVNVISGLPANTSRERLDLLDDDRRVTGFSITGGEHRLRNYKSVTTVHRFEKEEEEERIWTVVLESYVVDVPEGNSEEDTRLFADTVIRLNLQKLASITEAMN; partner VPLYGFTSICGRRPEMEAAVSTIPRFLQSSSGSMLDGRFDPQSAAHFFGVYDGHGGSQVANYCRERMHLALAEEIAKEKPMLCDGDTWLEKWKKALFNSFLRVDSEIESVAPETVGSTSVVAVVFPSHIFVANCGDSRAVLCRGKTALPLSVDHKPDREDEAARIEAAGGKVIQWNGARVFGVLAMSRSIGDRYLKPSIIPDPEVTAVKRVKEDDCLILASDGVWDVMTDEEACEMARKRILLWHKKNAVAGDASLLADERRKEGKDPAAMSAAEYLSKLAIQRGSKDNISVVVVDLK
Variant,relative binding score [%]
D95K,-9.89
G23I,6
L156G,33.8
Y53V,-6.38
E125F,78.5
V136L,68.2
S150M,-3.65
N22T,75.5
S27P,2.46
I105W,-8.01
V40Q,16.2
T160K,33.1
E38C,34.7
A84S,23.9
G71Y,2.38
C60M,-1.93

# Study 6 — method: protein binding microarray; molecule type: double-stranded DNA, one strand shown; sample: in vitro; concentration: not given; relative to: not given; direction: higher = stronger binding
# Target: Histone acetyltransferase KAT6A, both winged helices, GST fusion (KAT6A, Homo sapiens, UniProt Q92794, residues 1-181)
# Setting: 8-mer, flanks averaged, mean of 2 arrays, mostly near background
# Residues (chain): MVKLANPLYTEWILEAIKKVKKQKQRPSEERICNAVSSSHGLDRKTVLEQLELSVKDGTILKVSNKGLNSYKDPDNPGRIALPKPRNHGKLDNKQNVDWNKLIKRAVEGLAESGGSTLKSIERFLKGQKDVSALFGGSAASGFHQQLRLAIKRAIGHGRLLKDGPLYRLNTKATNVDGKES
Oligonucleotide,E-score
CAGACGCG,0.275
CCTATCGA,-0.127
GCATCCTA,-0.106
AAGAGATT,0.0107
CCCGCGGC,0.389
AATATCCG,0.154
TGGCGCCA,0.0922
AATATTCA,0.0377
AAATTTCG,-0.0685
GCCTCCGA,0.00751
CGGCGATA,0.303
ACGCGTCT,0.258
CTGGCCCA,-0.227
CTGTTCGC,0.166
CTAATATA,-0.0261
CGTTTGAG,-0.0222
CAAGGAAA,-0.139
ACCCCGAT,0.0788
